Measurements from different studies.
Compare with care: the assays were run in different laboratories. ± gives the spread as reported.

CN1CCN(S(=O)(=O)c2cc([N+](=O)[O-])ccc2N(CCOS(C)(=O)=O)CCOS(C)(=O)=O)CC1  concentration (NSG mice female, plasma; intraperitoneal, 25 mg/kg, 0.25 h): 9330 nM
C/C(=N\C#N)N(C)Cc1ccc(Cl)nc1  concentration (soil; 56 days, nominal 1.1): 0.021 mg/kg dry soil
O=C(Nc1cccnn1)N1CCC(=Cc2cccc(Oc3ccc(C(F)(F)F)cn3)c2)CC1  concentration (culture medium without cells; 100 nM, 24 h): 29.2 ± 1.2 nM
CN(C(=O)n1cnc(-c2ccc[n+]([O-])c2)c1)C1CCCCC1  concentration (Wistar rat, cerebellum; oral, 10 mg/kg, 4 h, single dose): 112 ± 34.8 ng/g
N#C/N=C1\SCCN1Cc1ccc(Cl)nc1  concentration (soil; 0 days, nominal 1.1): 0.6 mg/kg dry soil
O=C(Nc1cnccc1Cl)N1CCN(Cc2ccc3c(c2)OC(F)(F)O3)CC1  concentration (culture medium without cells; 100 nM, 3 h): 88 ± 4.5 nM
Cc1c(C(=O)O)ccc2c3n(nc12)[C@@H]1[C@H](C3)N(CC2CC2)[C@@]2(C(=O)Nc3cc(Cl)ccc32)[C@H]1c1cccc(Cl)c1F  concentration (Abcb1a-/- Abcg2-/- Rag1-/- mice, normal brain; oral, 2 mg/kg, 24 h): 227 ± 86 nM
O=C(Nc1cnccc1Cl)N1CCN(Cc2ccc3c(c2)OC(F)(F)O3)CC1  concentration (cell-free medium; 100 nM, 3 h): 88 ± 4.5 nM
CN(C(=O)n1cnc(-c2ccc[n+]([O-])c2)c1)C1CCCCC1  concentration (culture medium without cells; 100 nM, 24 h): 111 ± 2.8 nM
